# Measurements of several laboratories.
# Numbered parts are unrelated; each lists some results of a single study.

# Set 1
# Target: Histone acetyltransferase KAT6A, winged helix 2, GST fusion (KAT6A, Homo sapiens, UniProt Q92794, residues 85-181)
# Technique: protein binding microarray
# Molecule type: double-stranded DNA, one strand shown
# Sample: in vitro
# Tested at: not given
# Notes: 8-mer, flanks averaged, mean of 2 arrays, mostly near background
# Relative to: not given
# Direction: higher = stronger binding
# Target sequence (chain): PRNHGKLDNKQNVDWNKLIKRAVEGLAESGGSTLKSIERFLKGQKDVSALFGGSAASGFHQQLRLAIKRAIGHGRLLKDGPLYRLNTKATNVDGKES
Oligonucleotide,E-score
CAGAGTGC,0.0201
AAACTCCG,0.123
GGCAACAC,0.0679
ATCTCCAA,0.135

# Set 2
# Target: Interferon regulatory factor 3, full length, phosphomimetic (IRF3, Homo sapiens, UniProt Q14653, residues 1-427, S386D/S396D/S398D/S402D/T404D/S405D)
# Technique: protein-binding microarray
# Molecule type: double-stranded DNA, one strand shown
# Sample: in vitro
# Tested at: 2540 nM top
# Notes: 60-bp whole probe
# Added: salmon DNA 0.4 mg/ml
# Relative to: random background probes
# Direction: higher = stronger binding
# Residues (chain): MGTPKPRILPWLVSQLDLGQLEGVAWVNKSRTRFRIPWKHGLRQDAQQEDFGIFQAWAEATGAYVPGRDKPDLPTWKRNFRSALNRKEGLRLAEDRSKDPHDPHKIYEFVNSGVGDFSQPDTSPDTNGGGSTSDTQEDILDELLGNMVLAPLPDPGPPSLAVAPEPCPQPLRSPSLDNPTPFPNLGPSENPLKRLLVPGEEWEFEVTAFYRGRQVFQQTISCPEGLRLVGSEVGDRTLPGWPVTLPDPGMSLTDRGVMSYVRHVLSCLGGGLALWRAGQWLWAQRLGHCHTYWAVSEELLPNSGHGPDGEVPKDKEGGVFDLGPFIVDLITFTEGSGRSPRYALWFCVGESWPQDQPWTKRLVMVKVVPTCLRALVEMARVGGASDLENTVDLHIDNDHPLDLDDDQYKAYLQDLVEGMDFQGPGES
Oligonucleotide,fitted relative affinity [z-score]
GCCTAGCACTTAGATTTGAGTTCCGATTAGTGCTAGGTCTTGATTCGCTTGACGCTGCTG,1.3
GCCTAGCACTTACGTATCGACACTGGGTTAGTGCTAGTCTTGATTCGCTTGACGCTGCTG,0.52
GCCTAGCACGCCATTATGAGTCTTGAAGAGTGCTAGGTCTTGATTCGCTTGACGCTGCTG,-0.0622
GCCTAGCACCTTGTTTCCAGTATATTTAAGTGCTAGGTCTTGATTCGCTTGACGCTGCTG,3.35

# Set 3
# Target: Centromere-binding protein 1, full length, His-tagged (CBF1, Saccharomyces cerevisiae, UniProt P17106, residues 1-351)
# Chain of UniProt P17106 (whole entry, looked up): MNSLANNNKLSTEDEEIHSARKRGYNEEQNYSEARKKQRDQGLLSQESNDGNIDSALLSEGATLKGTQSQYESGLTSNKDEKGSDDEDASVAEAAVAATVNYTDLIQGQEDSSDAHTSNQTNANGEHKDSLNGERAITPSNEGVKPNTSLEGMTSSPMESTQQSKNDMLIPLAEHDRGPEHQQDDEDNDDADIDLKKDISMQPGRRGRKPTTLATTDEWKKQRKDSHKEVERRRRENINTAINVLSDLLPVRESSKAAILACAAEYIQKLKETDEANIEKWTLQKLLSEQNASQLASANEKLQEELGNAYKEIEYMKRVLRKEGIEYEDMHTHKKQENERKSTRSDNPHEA
# Technique: competition protein-binding microarray
# Molecule type: double-stranded DNA, one strand shown
# Sample: in vitro
# Tested at: 2 µM
# Notes: whole 60-bp probe, lowest competitor level
# Added: Pho4 competitor, 0.05 µM
# Direction: higher = stronger binding
Oligonucleotide,fluorescence intensity
CATACCCAACCTTGTCACATTACTTAAGATATTTGTGTCTTGATTCGCTTGACGCTGCTG,128 a.u.
TTTGCCTCGGCCTGCCGCGTGGTGATGGTAGTTTGAGTCTTGATTCGCTTGACGCTGCTG,72 a.u.
TACCCCATAATTTTGCACGTGACGGGTTTGTATTACGTCTTGATTCGCTTGACGCTGCTG,8710 a.u.
GAGAGCCTTGGTTGTCATGCCCTGAGGACCCAATGTGTCTTGATTCGCTTGACGCTGCTG,64.9 a.u.

# Mixed results
Substance,target,assay,test system,conditions,scale,measurement,result
"PhoQ, residues 284 288 289 292 302 303 AMDMFI","PhoP, residues 12 14 15 18 19 AGCRL (Escherichia coli, UniProt P23836)","Sort-seq, refers to: YFP reporter",E. coli,"PhoQ-PhoP variant library, added: 10 µM Mg2+","relative to: high Mg2+ state, higher = stronger signaling",fold induction,0.634

# Repeated from above (set 2):
Oligonucleotide,fitted relative affinity [z-score]
GCCTAGCACCTTGTTTCCAGTATATTTAAGTGCTAGGTCTTGATTCGCTTGACGCTGCTG,3.35
